Measured values gathered from unrelated publications.
Protocols differ between the studies behind these lines. ± marks the error that the study gave.
Organism: Klebsiella aerogenes

`CO[C@@H](C(N)=O)[C@H](NC(=O)c1ccc(NC(=O)c2ccc([N+](=O)[O-])cc2)cc1)C(=O)Nc1ccc(C(=O)Nc2ccc(C(=O)Nc3ccc(C(=O)O)cc3)c(O)c2OC(C)C)cc1` has an MIC of > 64 µg/mL (microbial growth; DSM30053).
The MIC of `COc1cc(OC)c2c(c1)C(=O)c1cc3oc(=O)cc(-c4ccc(Cl)cc4)c3c(O)c1C2=O` is reported as 32 µg/mL.
The MIC of `c1ccc(CN2CCOCCOCCN(CCCCCCCCCCN3CCOCCOCCN(CCCCCCCCCCN4CCOCCOCCN(Cc5ccccc5)CCOCCOCC4)CCOCCOCC3)CCOCCOCC2)cc1` is reported as 26 µM (cephalosporin-resistant).
`CN1/C(=C/C=C/c2cc(-c3ccccc3)cc(-c3ccccc3)[o+]2)C(C)(C)c2ccccc21` has an MIC of 16 µg/mL (microbial growth, broth dilution; ATCC13048).
For `Cc1cc(O)cc2c1C(=O)c1c(cc3oc(=O)cc(C)c3c1O)C2=O`, the inhibition zone was 14 mm (microbial growth, disc diffusion; 100 µg/disc).
Under “inhibition zone diameter”, `CCOC(=O)C1=C(C)NC2=C(C(=O)CC(C)(C)C2)C1c1ccc(OCC(=O)NN=Cc2cc(Br)c(O)c(Br)c2)cc1OCC(=O)NN=Cc1cc(Br)c(O)c(Br)c1` (stereo not shown) is recorded as 7.3 ± 0.01 mm (CCM 2531; concentration not given, 24 h, 37 °C).
`COc1c(NC(=O)c2ccc(NC(=O)c3ccc(NC(=O)[C@H](CC#N)NC(=O)c4ccc(NC(=O)/C(C)=C/c5ccc(O)cc5)cc4)cc3)c(OC)c2O)ccc(C(=O)O)c1O` has an MIC of > 64 µg/mL (microbial growth; DSM30053).
The MIC of `COc1c2c(cc3oc(=O)cc(-c4ccc(Cl)cc4)c13)C(=O)c1cc(C)cc(O)c1C2=O` is reported as > 100 µg/mL.
`c1ccc(CN2CCOCCOCCN(CCCCCCCCCCCCCCN3CCOCCOCCN(CCCCCCCCCCCCCCN4CCOCCOCCN(Cc5ccccc5)CCOCCOCC4)CCOCCOCC3)CCOCCOCC2)cc1` has an MIC of 12 µM (cephalosporin-resistant).
For `CCOC(=O)C1=C(C)NC2=C(C(=O)CC(C)(C)C2)C1c1ccc(OCC(=O)NN=Cc2cccc([N+](=O)[O-])c2)cc1OCC(=O)NN=Cc1cccc([N+](=O)[O-])c1` (stereo not shown), “inhibition zone diameter” read 3.1 ± 0.01 mm (CCM 2531; concentration not given, 24 h, 37 °C).

For quick reference, copied from above:
For `Cc1cc(O)cc2c1C(=O)c1c(cc3oc(=O)cc(C)c3c1O)C2=O`, the inhibition zone was 14 mm (microbial growth, disc diffusion; 100 µg/disc).
